Measured values gathered from unrelated publications.
Protocols differ between the studies behind these lines. ± marks the error that the study gave. Converted amounts (≈) assume the structure as drawn.

Structure (SMILES) | assay | test system | setting | how to read | quantity | value
Nc1ccn([C@@H]2O[C@H](CO)[C@@H](O)C2(F)F)c(=O)n1 | – | THU-treated rat plasma | 12.00 ng/mL, 1 h, 20 °C, bench-top stability, low QC | – | measured concentration | 10.3 ± 1 ng/mL
COc1cccc(N2CCN(C3=Nc4c(F)cccc4[C@H](CC(=O)O)N3c3cc(C(F)(F)F)ccc3OC)CC2)c1 | – | healthy women, plasma | intravenous infusion, 240 mg, day 1, single dose, 30-min infusion | – | terminal elimination rate constant | 1.3e-05 ± 4.9e-06 s⁻¹
CC(C)C[C@@H]1NC(=O)CN(C)C(=O)[C@H](Cc2ccccc2)NCc2ccc([nH]2)CNC1=O | – | PAMPA | 100 µM, 17 h, pH 6.4 | – | Papp | 1.45 ×10⁻⁶ cm/s
CC(=O)O[C@H]1C(=O)[C@@]2(C)[C@H]([C@H](OC(=O)c3ccccc3)[C@]3(O)C[C@H](OC(=O)[C@H](O)[C@@H](NC(=O)c4ccccc4)c4ccccc4)C(C)=C1C3(C)C)[C@]1(OC(C)=O)CO[C@@H]1C[C@@H]2O | noncompartmental analysis | human, plasma | intravenous, 80 mg/m^2, day 8, DL3 geometric mean, with: onalespib 200 mg/m^2 | – | volume of distribution (Vz) | 213 ± 74.3 L/m²
CS(=O)(=O)n1cc2c(n1)CN([C@H]1CO[C@H](c3cc(F)ccc3F)[C@@H](N)C1)C2 | – | healthy male human, plasma | oral, 10 mg once weekly, day 15, fasted, geometric mean | – | concentration at 168 h | 11.9 nM
Cc1nc2cccc(OCC(C)(C)C(=O)NC(C)C)c2c(N)c1C(=O)O | – | female Sprague-Dawley rat, plasma | oral gavage, 30 mg/kg, day 7 | – | Tmax | 15 min
O=C(CCCCCCC(=O)Nc1ccccc1)NO | – | patients, serum | oral, 800 mg, cycle 1 day 2, with: flavopiridol 30+30 mg/m2 | – | AUC(0-7 h) | 24.4 µM·h
CC[C@H](C)[C@H](NC(=O)CNC(=O)[C@H](Cc1ccccc1)NC(C)=O)C(=O)N[C@@]1(C)CCCC=CCCC[C@@](C)(C(=O)N[C@@H](CC(C)C)C(=O)N[C@@H](CCCCN)C(=O)N[C@H](C(N)=O)[C@@H](C)O)NC(=O)[C@H](CC(N)=O)NC(=O)[C@H]([C@@H](C)O)NC(=O)[C@H](CC(C)C)NC1=O | circular dichroism | PBS with 50% trifluoroethanol | 0.3 mg/mL, pH 7.4, 25 °C | – | α-helicity | 43.8%
CCN(CC)CCNC(=O)c1c(C)[nH]c(/C=C2\C(=O)Nc3ccc(F)cc32)c1C | – | human, plasma | oral, 20 mg/m2, day 7 | – | maximum trough plasma concentration | 55.1 ng/mL
CCCCCCCC/C=C\CCCCCCCC(=O)O[C@H](COC(=O)CCCCCCCCCCCCCCC)COP(=O)([O-])OCC[N+](C)(C)C | dynamic light scattering | lipid vesicles | 1.0 mg/mL, 25 °C, 1:1 wt/wt, 24 h at 50 °C | – | particle size | 10.4 nm
O=C(c1cc(Cl)c(O)c(Cl)c1)N1CS(=O)(=O)c2ccccc21 | – | healthy Chinese adults, fasted, plasma | oral, 10 mg single dose | – | AUC(0-24h) | 10600 ± 1460 ng·h/mL
Cn1c(-c2ccc(C(N)=O)cc2F)nnc1C(C)(C)Oc1c(F)cc(Cl)cc1F | – | young Japanese adults, plasma | oral, 20 mg single dose, day 1, high-dose multiple-dose study | – | Tmax range over subjects | 60 to 240 min
COc1cc(OC)c(/C=C/S(=O)(=O)Cc2ccc(OC)c(NCC(=O)O)c2)c(OC)c1 | – | cancer patients, phase I, plasma | oral, 700 mg twice daily, day 1 cycle 1 | – | Vss/F | 242 ± 212 L
CC(C)C[C@H]1C(=O)N2CCC[C@H]2[C@]2(O)O[C@](NC(=O)[C@@H]3C=C4c5cccc6[nH]c(Br)c(c56)C[C@H]4N(C)C3)(C(C)C)C(=O)N12 | – | male Sprague-Dawley rats, plasma | intravenous, 0.1 mg/kg, with: DAL 1.7 mg/kg plus HAL 0.7 mg/kg | – | mean residence time | 0.578 ± 0.113 h
CC(C)NC[C@@H](C(=O)N1CCN(c2ncnc3c2[C@H](C)C[C@H]3O)CC1)c1ccc(Cl)cc1 | – | human, hepatic impairment Moderate (Child-Pugh), plasma | oral, 100 mg single, geometric mean | – | AUC(0-72) | 555 ng·h/mL
CO[C@H]1C[C@@H]2CC[C@@H](C)[C@@](O)(O2)C(=O)C(=O)N2CCCC[C@H]2C(=O)O[C@H]([C@H](C)C[C@@H]2CC[C@@H](OP(C)(C)=O)[C@H](OC)C2)CC(=O)[C@H](C)/C=C(\C)[C@@H](O)[C@@H](OC)C(=O)[C@H](C)C[C@H](C)/C=C/C=C/C=C/1C | ELISA | human, serum | dose not given | – | dalotuzumab trough serum concentration | no effect
CCCC[C@H](NC(C)=O)C(=O)N[C@H]1CCC(=O)NC[C@@H](C(=O)N[C@@H](Cc2c[nH]c3ccccc23)C(N)=O)NC(=O)[C@H](CCCNC(=N)N)NC(=O)[C@@H](Cc2ccccc2)NC(=O)[C@H](Cc2c[nH]cn2)NC1=O | – | CD Sprague-Dawley rat, female, plasma | subcutaneous, 5.0 mg/kg/day, day 14, truncated curve, 3 points | – | AUC(0-t) | 1480 ng·h/mL
CC(=O)Nc1cccc(NC(=O)C(=O)NCCc2sc(-c3ccc(C)cc3)nc2C)c1 | refers to: heart rate, LV pressure, rhythm | Langendorff-perfused mouse heart | 0.08 to 1.6 µM, 5 min each | – | cardiac function | no effect

Structure (SMILES) | assay | test system | setting | how to read | quantity | value
CNCc1ccc(-c2[nH]c3cc(F)cc4c3c2CCNC4=O)cc1 | – | human cancer patients, plasma | intravenous, 18 mg/m2, day 4, with: temozolomide 200 | – | clearance | 300 mL/min
CCOc1ccc(NC(=S)N(CCO)Cc2cc3cc(C)cc(C)c3[nH]c2=O)cc1 | precipitation | aqueous solution from DMSO stock | – | – | solubility limit | > 100 µM
C#C[C@]1(CO)O[C@@H](n2cnc3c(N)nc(F)nc32)C[C@@H]1O | – | human, plasma | oral, 400 mg, single dose, fasted | – | AUC(0-inf) | 48.3 µM·h
O=C(O)/C=C/c1ccccc1 | – | rat plasma QC sample | 256 ng/mL nominal, 15 days, -80 °C, medium QC level storage stability | – | measured concentration | 254 ± 12.3 ng/mL
CC[C@H](C)[C@@H]1NC(=O)[C@H](Cc2ccc(O)cc2)NC(=O)[C@@H](N)CSSC[C@@H](C(=O)N2CCC[C@H]2C(=O)N[C@@H](CC(C)C)C(=O)NCC(N)=O)NC(=O)[C@H](CC(N)=O)NC(=O)[C@H](CCC(N)=O)NC1=O | microdialysis, radioimmunoassay | knock-out male mice lacking compound, amygdala extracellular fluid | intranasal, 12 µg, time to half of Cmax | – | half-life | 39.6 ± 16.1 min
Cc1cnc(NC(=O)C2=C(O)c3ccccc3S(=O)(=O)N2C)s1 | – | Sprague-Dawley rat, male, liver | oral, 0.4 mg/kg, 6 h, single low dose | direction not given | hepatocyte necrosis score | 0
CCCOc1ccc([C@H]2CNC(=O)N2c2ccc3[nH]cnc3c2)cc1 | – | human, elderly, fasted, cerebrospinal fluid | oral, 500 mg twice daily, tablet, 12 h, day 11, minimum, estimated | – | CSF concentration | 26.2 ng/mL
CC(C)=CCC[C@](C)(O[C@@H]1O[C@H](CO)[C@@H](O)[C@H](O)[C@H]1O)[C@H]1CC[C@]2(C)[C@@H]1[C@H](O)C[C@@H]1[C@@]3(C)CC[C@H](O)C(C)(C)[C@@H]3[C@@H](O[C@@H]3O[C@H](CO)[C@@H](O)[C@H](O)[C@H]3O)C[C@]12C | – | rat, extracted tissue homogenate QC samples | 0.2 µg/mL, 24 h, 15 °C, autosampler | – | post-preparative stability accuracy | 96.2 ± 8.9%
COc1ccc2nc([S@@+]([O-])Cc3ncc(C)c(OC)c3C)[nH]c2c1 | – | human healthy | 40 mg, headache | – | adverse events | 0%
COC(=O)N[C@H](C(=O)N[C@@H](Cc1ccccc1)[C@@H](O)CN(Cc1ccc(-c2ccccn2)cc1)NC(=O)[C@@H](NC(=O)OC)C(C)(C)C)C(C)(C)C | modified PAMPA Franz cell | phosphate buffer with HPMCAS | stock 20 mg/mL, 3 h, 37 °C, 460 nm particles, 300 rpm, with: 3% BSA receiver | – | particle permeability | 22.9 ± 1.3 ×10⁻⁶ cm/s
CCCCCCCC(=O)OC[C@H](NC(=O)[C@H](CO)NC(=O)CN)C(=O)N[C@H](C(=O)N[C@@H](CC(C)C)C(=O)N[C@@H](CO)C(=O)N1CCC[C@H]1C(=O)N[C@@H](CCC(=O)O)C(=O)N[C@@H](Cc1c[nH]cn1)C(=O)N[C@@H](CCC(N)=O)C(=O)N[C@@H](CCCNC(=N)N)C(=O)N[C@H](C(=O)N[C@@H](CCC(N)=O)C(=O)N[C@@H](CCC(N)=O)C(=O)N[C@@H](CCCNC(=N)N)C(=O)N[C@@H](CCCCN)C(=O)N[C@@H](CCC(=O)O)C(=O)N[C@@H](CO)C(=O)N[C@@H](CCCCN)C(=O)N[C@@H](CCCCN)C(=O)N1CCC[C@H]1C(=O)N1CCC[C@H]1C(=O)N[C@@H](C)C(=O)N[C@@H](CCCCN)C(=O)N[C@@H](CC(C)C)C(=O)N[C@@H](CCC(N)=O)C(=O)N1CCC[C@H]1C(=O)N[C@@H](CCCNC(=N)N)C(=O)O)C(C)C)[C@H](c1ccccc1)c1c[nH]c2ccccc12 | RP-HPLC Jupiter Proteo | – | acetonitrile/water TFA gradient | – | HPLC retention | 40.6 %B
CNC(=O)c1ccc(-c2cnc3ncc(Cc4ccc5ncccc5c4)n3n2)cc1F | – | human, normal hepatic function, plasma | oral, 200 mg single dose | – | Cmax (mean) | 1870 ng/mL
Oc1ccc(/C=C/c2cc(O)cc(O)c2)cc1 | – | male Sprague-Dawley rat, plasma | intravenous, 10 mg/kg | – | AUC(0-t) | 1840 ng·h/mL
O=c1[nH]c(=O)c2c[nH]nc2[nH]1 | – | human, male, urine | oral, 10 mg, with: allopurinol 300 mg | relative to: combination over alone | Ae(0-24) ratio | 119%
N=C(N)c1ccc(OCCC(CCOc2ccc(C(=N)N)cc2)c2ccccc2)cc1 (centres unmarked) | haemolysis | sheep | 200 µg/mL, 20 h | – | haemolysis | > 10%
CC(=O)O[C@H]1C(=O)[C@@]2(C)[C@H]([C@H](OC(=O)c3ccccc3)[C@]3(O)C[C@H](OC(=O)[C@H](O)[C@@H](NC(=O)c4ccccc4)c4ccccc4)C(C)=C1C3(C)C)[C@]1(OC(C)=O)CO[C@@H]1C[C@@H]2O | – | phosphate buffered saline | 24 h, pH 7.4, 1% DMSO | – | kinetic solubility | 1 µM (≈ 0.854 µg/mL)
CCCCCCCCCCCCOP1(=O)CO[C@@H](Cn2ccc(N)nc2=O)CO1 (some centres unmarked) | – | n-octanol/DPBS | 24 h, pH 7.4, 37 °C | – | logP | 3.89 ± 1.23

Some of these lines once more:
Structure (SMILES) | assay | test system | setting | how to read | quantity | value
CC(C)C[C@H]1C(=O)N2CCC[C@H]2[C@]2(O)O[C@](NC(=O)[C@@H]3C=C4c5cccc6[nH]c(Br)c(c56)C[C@H]4N(C)C3)(C(C)C)C(=O)N12 | – | male Sprague-Dawley rats, plasma | intravenous, 0.1 mg/kg, with: DAL 1.7 mg/kg plus HAL 0.7 mg/kg | – | mean residence time | 0.578 ± 0.113 h
CC[C@H](C)[C@@H]1NC(=O)[C@H](Cc2ccc(O)cc2)NC(=O)[C@@H](N)CSSC[C@@H](C(=O)N2CCC[C@H]2C(=O)N[C@@H](CC(C)C)C(=O)NCC(N)=O)NC(=O)[C@H](CC(N)=O)NC(=O)[C@H](CCC(N)=O)NC1=O | microdialysis, radioimmunoassay | knock-out male mice lacking compound, amygdala extracellular fluid | intranasal, 12 µg, time to half of Cmax | – | half-life | 39.6 ± 16.1 min
Nc1ccn([C@@H]2O[C@H](CO)[C@@H](O)C2(F)F)c(=O)n1 | – | THU-treated rat plasma | 12.00 ng/mL, 1 h, 20 °C, bench-top stability, low QC | – | measured concentration | 10.3 ± 1 ng/mL
Cc1cnc(NC(=O)C2=C(O)c3ccccc3S(=O)(=O)N2C)s1 | – | Sprague-Dawley rat, male, liver | oral, 0.4 mg/kg, 6 h, single low dose | direction not given | hepatocyte necrosis score | 0
COc1ccc2nc([S@@+]([O-])Cc3ncc(C)c(OC)c3C)[nH]c2c1 | – | human healthy | 40 mg, headache | – | adverse events | 0%
CC(C)NC[C@@H](C(=O)N1CCN(c2ncnc3c2[C@H](C)C[C@H]3O)CC1)c1ccc(Cl)cc1 | – | human, hepatic impairment Moderate (Child-Pugh), plasma | oral, 100 mg single, geometric mean | – | AUC(0-72) | 555 ng·h/mL
